Results pooled from the literature.
Compare with care: the assays were run in different laboratories. “And” joins repeats or separate records; there may be more than shown. Numbers after ± are the reported error.
cyp121: Mycocyclosin synthase (cyp121, Mycobacterium tuberculosis, UniProt P9WPP7)
OPRM1: Mu-type opioid receptor (OPRM1, Homo sapiens, UniProt P35372)
inhA: Enoyl-[acyl-carrier-protein] reductase [NADH] (inhA, Mycobacterium tuberculosis, UniProt P9WGR1)
Neuronal acetylcholine receptor; alpha9/alpha10: Neuronal acetylcholine receptor; alpha9/alpha10 (Homo sapiens, UniProt Q9GZZ6+Q9UGM1)

By UniProt entry, the sequences of proteins in these tests, tags left out. Where a name states a change or a piece, a line headed by the entry shows the natural chain unless it says otherwise. Residues count along the entry.
UniProt P35372, whole entry: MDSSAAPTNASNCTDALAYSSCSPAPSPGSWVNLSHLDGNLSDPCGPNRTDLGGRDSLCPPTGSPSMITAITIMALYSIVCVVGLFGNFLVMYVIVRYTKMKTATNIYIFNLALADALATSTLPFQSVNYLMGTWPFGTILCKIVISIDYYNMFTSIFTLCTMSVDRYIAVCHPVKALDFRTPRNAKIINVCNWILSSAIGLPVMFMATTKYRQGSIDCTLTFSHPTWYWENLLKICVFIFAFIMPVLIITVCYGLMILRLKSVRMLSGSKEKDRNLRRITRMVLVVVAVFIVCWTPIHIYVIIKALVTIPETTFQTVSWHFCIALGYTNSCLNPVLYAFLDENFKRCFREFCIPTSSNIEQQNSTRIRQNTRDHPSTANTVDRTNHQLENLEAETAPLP
UniProt P9WGR1, whole entry: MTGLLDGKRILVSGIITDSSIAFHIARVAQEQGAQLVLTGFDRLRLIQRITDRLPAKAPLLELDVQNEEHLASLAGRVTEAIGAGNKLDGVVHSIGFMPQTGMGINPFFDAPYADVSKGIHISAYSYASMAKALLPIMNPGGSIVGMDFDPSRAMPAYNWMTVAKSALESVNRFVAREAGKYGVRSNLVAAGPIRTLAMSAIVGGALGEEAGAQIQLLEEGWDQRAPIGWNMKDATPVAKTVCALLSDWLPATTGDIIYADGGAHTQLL
UniProt Q9GZZ6, 25-450 limits assumed: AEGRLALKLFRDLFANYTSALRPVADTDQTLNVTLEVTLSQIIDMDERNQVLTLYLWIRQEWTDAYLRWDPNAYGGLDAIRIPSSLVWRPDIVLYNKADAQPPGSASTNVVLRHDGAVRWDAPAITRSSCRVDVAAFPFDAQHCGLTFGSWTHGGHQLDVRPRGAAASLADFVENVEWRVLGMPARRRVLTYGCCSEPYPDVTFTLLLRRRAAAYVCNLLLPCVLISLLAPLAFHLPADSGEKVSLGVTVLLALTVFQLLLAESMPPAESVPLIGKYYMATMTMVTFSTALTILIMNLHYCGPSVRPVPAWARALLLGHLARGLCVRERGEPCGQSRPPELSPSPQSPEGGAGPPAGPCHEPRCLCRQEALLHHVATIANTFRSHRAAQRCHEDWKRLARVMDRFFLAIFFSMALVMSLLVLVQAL
UniProt Q9UGM1, 26-479 limits assumed: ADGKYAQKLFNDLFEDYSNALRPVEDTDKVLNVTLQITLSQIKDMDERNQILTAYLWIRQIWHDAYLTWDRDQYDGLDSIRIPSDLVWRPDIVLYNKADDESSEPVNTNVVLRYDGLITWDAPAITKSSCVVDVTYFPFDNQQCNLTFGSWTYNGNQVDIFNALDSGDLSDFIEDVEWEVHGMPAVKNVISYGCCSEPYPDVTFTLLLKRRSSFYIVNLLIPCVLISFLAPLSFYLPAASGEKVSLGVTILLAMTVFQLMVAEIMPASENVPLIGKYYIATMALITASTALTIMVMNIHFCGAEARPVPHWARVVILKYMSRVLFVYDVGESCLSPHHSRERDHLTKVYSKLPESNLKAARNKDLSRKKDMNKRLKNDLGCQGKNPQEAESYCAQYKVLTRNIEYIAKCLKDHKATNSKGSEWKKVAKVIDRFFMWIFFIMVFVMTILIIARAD
UniProt Q9UGM1, whole entry, looked up: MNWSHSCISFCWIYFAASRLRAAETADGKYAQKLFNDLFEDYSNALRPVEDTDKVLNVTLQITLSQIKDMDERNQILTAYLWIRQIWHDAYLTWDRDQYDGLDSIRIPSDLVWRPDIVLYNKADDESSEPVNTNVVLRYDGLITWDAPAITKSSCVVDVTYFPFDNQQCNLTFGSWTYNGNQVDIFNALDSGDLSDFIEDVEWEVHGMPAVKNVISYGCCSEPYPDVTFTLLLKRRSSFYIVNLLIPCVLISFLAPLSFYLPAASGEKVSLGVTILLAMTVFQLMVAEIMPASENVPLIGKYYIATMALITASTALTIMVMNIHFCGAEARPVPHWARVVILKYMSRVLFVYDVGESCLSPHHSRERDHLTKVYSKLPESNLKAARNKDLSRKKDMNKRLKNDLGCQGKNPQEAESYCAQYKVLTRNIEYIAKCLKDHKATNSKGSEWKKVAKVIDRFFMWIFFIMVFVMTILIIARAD
UniProt O95551, whole entry: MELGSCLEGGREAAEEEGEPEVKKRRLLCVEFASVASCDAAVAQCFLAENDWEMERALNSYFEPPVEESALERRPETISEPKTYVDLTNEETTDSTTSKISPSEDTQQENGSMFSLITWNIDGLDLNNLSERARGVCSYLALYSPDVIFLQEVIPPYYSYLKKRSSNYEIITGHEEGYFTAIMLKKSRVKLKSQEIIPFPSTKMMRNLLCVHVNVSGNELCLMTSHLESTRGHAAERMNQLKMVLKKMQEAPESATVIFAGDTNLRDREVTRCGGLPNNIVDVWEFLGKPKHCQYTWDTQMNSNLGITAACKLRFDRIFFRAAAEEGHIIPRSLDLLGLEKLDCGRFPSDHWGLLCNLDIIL
UniProt P06730, whole entry: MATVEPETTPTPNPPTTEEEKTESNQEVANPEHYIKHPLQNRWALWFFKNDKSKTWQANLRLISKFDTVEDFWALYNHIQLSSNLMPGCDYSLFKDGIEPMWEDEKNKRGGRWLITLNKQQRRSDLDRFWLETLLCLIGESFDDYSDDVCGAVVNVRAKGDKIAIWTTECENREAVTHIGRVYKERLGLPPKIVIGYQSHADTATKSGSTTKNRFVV
UniProt O14939, whole entry: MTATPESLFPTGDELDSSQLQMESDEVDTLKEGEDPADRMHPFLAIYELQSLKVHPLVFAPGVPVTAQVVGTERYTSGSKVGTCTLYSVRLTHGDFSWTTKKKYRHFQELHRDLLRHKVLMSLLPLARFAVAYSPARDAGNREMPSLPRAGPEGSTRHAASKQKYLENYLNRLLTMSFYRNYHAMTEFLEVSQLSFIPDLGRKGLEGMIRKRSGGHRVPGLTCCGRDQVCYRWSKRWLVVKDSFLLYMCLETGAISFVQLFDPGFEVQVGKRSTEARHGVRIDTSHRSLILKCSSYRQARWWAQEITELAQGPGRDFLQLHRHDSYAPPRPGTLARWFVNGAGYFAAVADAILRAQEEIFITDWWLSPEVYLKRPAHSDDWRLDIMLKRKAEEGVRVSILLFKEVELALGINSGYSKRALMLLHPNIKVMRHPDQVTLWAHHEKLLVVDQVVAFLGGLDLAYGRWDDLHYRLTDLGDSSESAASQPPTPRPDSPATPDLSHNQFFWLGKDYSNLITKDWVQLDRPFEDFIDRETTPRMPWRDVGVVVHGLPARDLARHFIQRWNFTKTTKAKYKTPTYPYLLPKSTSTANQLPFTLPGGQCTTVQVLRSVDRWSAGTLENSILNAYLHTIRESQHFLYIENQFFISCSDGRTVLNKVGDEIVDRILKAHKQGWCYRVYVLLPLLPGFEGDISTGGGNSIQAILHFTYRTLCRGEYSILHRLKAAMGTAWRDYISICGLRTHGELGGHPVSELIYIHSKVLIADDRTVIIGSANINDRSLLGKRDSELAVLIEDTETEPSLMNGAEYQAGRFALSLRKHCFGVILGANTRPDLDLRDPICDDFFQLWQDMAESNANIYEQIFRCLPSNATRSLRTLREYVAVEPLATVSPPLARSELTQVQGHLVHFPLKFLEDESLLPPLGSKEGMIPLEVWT
UniProt O15393, whole entry S251D/R252D/Q253D/S254D/R255K, looked up: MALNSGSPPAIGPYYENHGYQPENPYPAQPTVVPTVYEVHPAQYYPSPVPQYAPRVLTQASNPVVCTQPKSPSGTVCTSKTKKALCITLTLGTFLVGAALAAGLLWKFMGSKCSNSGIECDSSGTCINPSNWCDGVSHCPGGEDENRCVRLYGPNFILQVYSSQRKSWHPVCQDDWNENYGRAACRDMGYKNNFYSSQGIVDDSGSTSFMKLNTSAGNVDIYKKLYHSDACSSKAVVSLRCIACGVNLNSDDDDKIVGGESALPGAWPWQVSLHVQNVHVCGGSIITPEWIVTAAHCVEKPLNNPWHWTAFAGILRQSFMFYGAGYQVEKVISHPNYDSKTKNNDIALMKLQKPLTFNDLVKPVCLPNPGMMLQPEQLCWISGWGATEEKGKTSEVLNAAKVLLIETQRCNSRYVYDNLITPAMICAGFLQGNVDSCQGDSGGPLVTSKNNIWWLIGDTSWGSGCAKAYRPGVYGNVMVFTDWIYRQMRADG
UniProt P23977, whole entry: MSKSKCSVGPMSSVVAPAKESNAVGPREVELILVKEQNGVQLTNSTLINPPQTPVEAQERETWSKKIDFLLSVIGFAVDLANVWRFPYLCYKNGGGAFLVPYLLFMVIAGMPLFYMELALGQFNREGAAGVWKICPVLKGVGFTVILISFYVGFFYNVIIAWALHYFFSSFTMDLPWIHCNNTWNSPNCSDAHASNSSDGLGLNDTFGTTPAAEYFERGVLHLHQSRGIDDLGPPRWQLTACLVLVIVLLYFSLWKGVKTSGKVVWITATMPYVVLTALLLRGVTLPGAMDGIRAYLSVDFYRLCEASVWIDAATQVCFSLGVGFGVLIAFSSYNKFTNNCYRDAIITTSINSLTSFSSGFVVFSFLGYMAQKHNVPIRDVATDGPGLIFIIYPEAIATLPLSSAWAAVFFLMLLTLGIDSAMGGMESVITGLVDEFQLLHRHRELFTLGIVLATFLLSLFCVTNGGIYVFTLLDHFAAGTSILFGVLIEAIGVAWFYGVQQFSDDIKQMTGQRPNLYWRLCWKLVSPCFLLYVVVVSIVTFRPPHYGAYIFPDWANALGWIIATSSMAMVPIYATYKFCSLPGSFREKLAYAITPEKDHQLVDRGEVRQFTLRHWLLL
UniProt P41145, whole entry: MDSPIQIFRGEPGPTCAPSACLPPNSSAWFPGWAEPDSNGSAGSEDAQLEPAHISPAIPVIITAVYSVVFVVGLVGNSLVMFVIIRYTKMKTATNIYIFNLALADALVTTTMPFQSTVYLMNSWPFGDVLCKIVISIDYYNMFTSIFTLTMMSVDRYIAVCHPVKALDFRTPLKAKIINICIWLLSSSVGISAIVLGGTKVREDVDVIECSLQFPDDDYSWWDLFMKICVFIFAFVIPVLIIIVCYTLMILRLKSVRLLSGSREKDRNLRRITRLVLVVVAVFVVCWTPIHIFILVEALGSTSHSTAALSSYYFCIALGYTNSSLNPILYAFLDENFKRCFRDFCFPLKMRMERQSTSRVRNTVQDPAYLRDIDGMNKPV
UniProt P08173, whole entry: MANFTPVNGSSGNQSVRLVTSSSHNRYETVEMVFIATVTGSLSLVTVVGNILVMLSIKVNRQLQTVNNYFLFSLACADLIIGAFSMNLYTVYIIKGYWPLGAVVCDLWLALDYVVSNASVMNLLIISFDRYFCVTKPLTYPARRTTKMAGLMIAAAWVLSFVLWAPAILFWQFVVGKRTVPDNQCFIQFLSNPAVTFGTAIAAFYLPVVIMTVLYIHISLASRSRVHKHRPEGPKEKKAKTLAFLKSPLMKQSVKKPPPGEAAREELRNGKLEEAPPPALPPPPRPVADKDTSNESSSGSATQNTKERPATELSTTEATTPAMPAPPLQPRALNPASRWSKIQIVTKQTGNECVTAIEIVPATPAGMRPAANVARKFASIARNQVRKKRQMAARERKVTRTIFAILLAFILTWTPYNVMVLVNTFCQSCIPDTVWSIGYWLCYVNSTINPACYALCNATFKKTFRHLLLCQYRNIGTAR
UniProt F1M9V7, 1-920: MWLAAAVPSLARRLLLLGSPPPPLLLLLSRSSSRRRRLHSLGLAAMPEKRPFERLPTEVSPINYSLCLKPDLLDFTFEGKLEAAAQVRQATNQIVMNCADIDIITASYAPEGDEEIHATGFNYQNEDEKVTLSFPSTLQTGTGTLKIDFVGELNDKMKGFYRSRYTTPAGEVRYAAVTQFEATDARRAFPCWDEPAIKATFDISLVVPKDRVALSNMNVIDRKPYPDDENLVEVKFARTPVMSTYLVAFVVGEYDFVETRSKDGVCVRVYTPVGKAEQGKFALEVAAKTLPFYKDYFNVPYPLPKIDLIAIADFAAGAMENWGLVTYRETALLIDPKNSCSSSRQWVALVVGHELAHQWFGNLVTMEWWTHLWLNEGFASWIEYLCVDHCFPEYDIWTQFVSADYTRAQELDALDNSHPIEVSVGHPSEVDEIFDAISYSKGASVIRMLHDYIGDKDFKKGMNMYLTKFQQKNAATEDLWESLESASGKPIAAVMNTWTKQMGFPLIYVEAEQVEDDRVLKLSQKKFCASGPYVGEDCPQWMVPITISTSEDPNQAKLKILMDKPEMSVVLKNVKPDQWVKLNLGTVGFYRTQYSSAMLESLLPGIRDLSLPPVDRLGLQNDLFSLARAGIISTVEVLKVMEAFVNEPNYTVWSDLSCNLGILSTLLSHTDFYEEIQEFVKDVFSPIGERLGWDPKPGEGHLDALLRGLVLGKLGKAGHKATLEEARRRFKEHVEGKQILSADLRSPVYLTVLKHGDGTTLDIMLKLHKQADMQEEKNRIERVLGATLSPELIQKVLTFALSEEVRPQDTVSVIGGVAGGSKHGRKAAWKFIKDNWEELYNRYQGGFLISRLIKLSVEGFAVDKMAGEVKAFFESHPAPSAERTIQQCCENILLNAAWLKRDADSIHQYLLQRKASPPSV

For `N#Cc1ccc(-c2ccc(COCCc3ccc(-c4nc5cc(-c6ccccc6)ccn5c4Nc4ccc(C(=O)O)cc4)cc3)cc2)nc1`, the selectivity ratio was > 36 (TDP2 (Homo sapiens, UniProt O95551); reference: TDP1 IC50 over TDP2 IC50).
With `CCc1ccc2c(-c3ccc(OC)cc3)ccc(C(CC)n3ccnc3)c2n1` (centres unmarked) the Kd was 1.5 ± 0.18 µM (cyp121; binding).
Under “potency relative to DAMGO”, `CN1CC[C@]23c4c5ccc(O)c4O[C@H]2c2ncc(-c4ccc(Cl)cc4)cc2C[C@@]3(OCCCc2ccccc2)[C@H]1C5` is recorded as ≤ 2 fold (OPRM1; β-arrestin-2 recruitment, agonist, PathHunter; reference: DAMGO).
With `O=C(C1CCN(Cc2cccc3ccccc23)CC1)N1CCc2ccccc2C1` the Vmax was 0.032 absorbance units/min (ache (Electrophorus electricus, UniProt O42275); enzyme activity, inhibitor, Ellman; 300 µM, together with: acetylthiocholine iodide).
`N#Cc1ccccc1Oc1ccc(Cn2cc(C3CCCC3)nn2)cc1O`: “reverse isomerization rate k6” 0.0094 ± 0.0018 min⁻¹ (inhA; 20 °C, EI* to EI).
For `Cc1ccc(-c2csc(NP(=O)(O)OCC3OC(n4c[n+](Cc5ccccc5)c5c(=O)[nH]c(NC(=O)c6ccccc6)nc54)C4OC(C)(C)OC34)n2)cc1` (centres unmarked), the protein level was 4.23 ng/mL (EIF4E (Homo sapiens, UniProt P06730); refers to: EIF4E; MCF7).
The selectivity ratio of `O=C(NCCN1CCC2(CC1)C(=O)NCN2Cc1cccnc1)c1ccc2ccccc2c1` is reported as > 80 fold (Phospholipase D2 (Homo sapiens, UniProt O14939); cell-based; reference: PLD1 IC50 over PLD2 IC50).
`CC(C)(C)O[C@@H]1C[C@@H](C(=O)N[C@H](Cc2ccccc2)C(=O)C(=O)NCc2ccc(Cl)cn2)N(C(=O)[C@@H](NC(=O)C2CCC(F)(F)CC2)C2CCCCC2)C1` gave an inhibition of -8.18% and -1.12% and -2.17% (TMPRSS2 (Homo sapiens, UniProt O15393, Q253D/R252D/R255K/S251D/S254D); enzyme activity, inhibitor; 500 µM).
Under “reverse isomerization rate k6”, `N#Cc1ccccc1Oc1ccc(Cn2cc(C3CCCCC3)nn2)cc1O` is recorded as 0.0084 ± 0.0017 min⁻¹ (inhA; 20 °C, EI* to EI).
`CCNC(C)Cc1ccc2c(c1)OCO2` (centres unmarked) has an Emax of 61 ± 2% (Slc6a3 (Rattus norvegicus, UniProt P23977); dopamine release, releaser; rat brain synaptosomes; reference: maximal release).
With `C#CCOCCC(=O)N[C@H](Cc1ccccc1)C(=O)N[C@@H](Cc1ccccc1)C(=O)N[C@@H](CCCNC(N)=O)C(=O)CCl` the selectivity ratio was > 275 fold (Replicase polyprotein 1ab, main protease (rep, Severe acute respiratory syndrome coronavirus 2, UniProt P0DTD1); enzyme activity, inhibitor; reference: PLpro IC50 over target IC50).
With `CC(C)C[C@H](NC(=O)[C@@H]1C[C@@H](O)CN1C(=O)[C@@H]1CSSC[C@H](NC(=O)[C@@H](NC(=O)[C@@H]2CCCN2)C(C)C)C(=O)N[C@H](Cc2c[nH]c3ccccc23)C(=O)N[C@@H](CCCCN)C(=O)N[C@@H](Cc2ccccc2)C(=O)NCC(=O)N1)C(=O)O` the activation was ~30% (SSTR1 (Homo sapiens, UniProt P30872); G protein dissociation, agonist; 1 µM, together with: GαoA).
The Emax of `Oc1cccc2c1OC1CCCC3CN(CC4CC4)CCC231` (single isomer, unassigned) is reported as 23 ± 1% (OPRK1 (Homo sapiens, UniProt P41145); partial agonist).
The inhibition of `COc1ccc(CN[C@@H]2CO[C@H](C(c3ccccc3)c3ccccc3)C[C@H]2O)cc1` is reported as -3.4% (CHRM4 (Homo sapiens, UniProt P08173); radioligand binding; 10 µM, together with: [3H]QNB).
With `CC(C)[C@H](NC(=O)[C@@H]1CCCN1C(=O)[C@H](C)NC(=O)[C@H](CO)NC(=O)[C@H](C)NC(=O)[C@H](CC(N)=O)NC(=O)[C@H](CCC(=O)O)NC(=O)[C@@H](NC(=O)[C@H](CC(=O)O)NC(=O)[C@H](CCCCN)NC(=O)[C@H](C)NC(=O)[C@H](CCC(N)=O)NC(=O)[C@H](Cc1ccccc1)NC(=O)[C@H](C)NC(=O)[C@H](Cc1c[nH]c2ccccc12)NC(=O)[C@H](C)NC(=O)[C@@H](NC(=O)CN)C(C)C)C(C)C)C(=O)O` the binding stoichiometry was 1 (Peptide cyclase 1 (Gypsophila vaccaria, UniProt R4P353, S562A); isothermal titration calorimetry; concentration not given, pH 8.0, 25 °C).
`c1cc[n+](CCCCCCCCCC[n+]2cccc3ccccc32)cc1` has a selectivity ratio of 630 (ACHE (Homo sapiens, UniProt P22303); reference: BChE IC50 over AChE IC50).
With `COC(=O)[C@@H]1C=C(OC(=O)c2ccc(CO)cc2)C(=O)[C@H]2[C@@]1(C)CC[C@H]1C(=O)O[C@H](c3ccoc3)C[C@]21C` the ligand efficiency was 0.38 (OPRM1; G-protein signalling, agonist).
For `CSCC[C@H](NC(=O)[C@H](Cc1ccccc1)NC(=O)CNC(=O)CNC(=O)[C@@H](N)Cc1ccc(O)cc1)C(=O)O`, the Km was 80 µM (Puromycin-sensitive aminopeptidase (Rattus norvegicus, UniProt F1M9V7); substrate; rat enzyme).
`Cc1ccccc1Oc1ccc(Cn2cc(C3CC3)nn2)cc1O` has a residence time of 190 ± 10 min (inhA; enzyme inhibition, inhibitor, progress curve analysis; 20 °C).
For `CC(c1ccc2c(c1)[nH]c1cc(F)ccc12)n1ccnc1` (centres unmarked), the Kd was 7.5 ± 0.8 µM (cyp121; binding).
`N#Cc1ccccc1Oc1ccc(Cn2cc(C3CC3)nn2)cc1O` — result for “isomerization rate k5”: 1.4 min⁻¹ (inhA; 20 °C, EI to EI*).
Under “loss of potency”, `CN(C(=O)Cc1ccc(Cl)c(Cl)c1)C1CCCCC1N1CCCC1` (centres unmarked) is recorded as 2 (PKD2L1 (Homo sapiens, UniProt Q9P0L9, F549I); ion current; mutant F549I, unit not given; reference: wild type).
With `COC(=O)[C@@H]1C=C(OC(=O)c2ccc(O)cc2)C(=O)[C@H]2[C@@]1(C)CC[C@H]1C(=O)O[C@H](c3ccoc3)C[C@]21C` the bias factor was 2.13 (Mu-type opioid receptor, with beta-arrestin-2 (OPRM1, Homo sapiens, UniProt P35372); β-arrestin-2 vs cAMP, agonist; reference: DAMGO, higher = β-arrestin-2 bias).
`CC[C@H](C)[C@@H]1NC(=O)[C@H](CCC(=O)O)NC(=O)[C@@H]2CCCN2C(=O)[C@H](Cc2c[nH]cn2)NC(=O)[C@H](CC(=O)O)NC(=O)[C@H](Cc2ccc(O)cc2)NC(=O)[C@H](CC(N)=O)NC(=O)[C@@H]2CSSC[C@@H]3NC(=O)CNC(=O)COCCOCCOCCOCCOCCNC(=O)[C@H](CSSC[C@H](NC3=O)C(=O)N[C@@H](CO)C(=O)N[C@@H](CC(=O)O)C(=O)N3CCC[C@H]3C(=O)N[C@@H](CCCNC(=N)N)C(=O)N2)NC1=O` gave an inhibition of ~50% (Neuronal acetylcholine receptor; alpha9/alpha10; ACh-evoked current, two-electrode voltage clamp; Xenopus oocytes; 1 µM, together with: ACh 6 µM).
`Oc1cc(Cn2cc(C3CC3)nn2)ccc1Oc1ccccc1Cl` — result for “isomerization rate k5”: 1.1 min⁻¹ (inhA; 20 °C, EI to EI*).
Under “recovery of response”, `C[C@@H]1NC(=O)[C@H](CCCNC(=N)N)NC(=O)[C@H](CCCNC(=N)N)NC(=O)[C@@H]2CCCN2C(=O)[C@H](CO)NC(=O)[C@@H]2CSSC[C@H](NC(=O)CN)C(=O)N[C@@H](CSSC[C@@H](C(N)=O)NC(=O)[C@H](CO)NC(=O)[C@H](CCCNC(=N)N)NC1=O)C(=O)N[C@@H](CO)C(=O)N[C@@H](Cc1c[nH]cn1)C(=O)N1CCC[C@H]1C(=O)N[C@@H](C)C(=O)N2` is recorded as 3 ± 2% (Neuronal acetylcholine receptor; alpha9/alpha10; ion current, antagonist; Xenopus oocytes; 10 µM, 5 min, after washout, together with: acetylcholine; reference: control).

Excerpt of the above:
With `CC(C)[C@H](NC(=O)[C@@H]1CCCN1C(=O)[C@H](C)NC(=O)[C@H](CO)NC(=O)[C@H](C)NC(=O)[C@H](CC(N)=O)NC(=O)[C@H](CCC(=O)O)NC(=O)[C@@H](NC(=O)[C@H](CC(=O)O)NC(=O)[C@H](CCCCN)NC(=O)[C@H](C)NC(=O)[C@H](CCC(N)=O)NC(=O)[C@H](Cc1ccccc1)NC(=O)[C@H](C)NC(=O)[C@H](Cc1c[nH]c2ccccc12)NC(=O)[C@H](C)NC(=O)[C@@H](NC(=O)CN)C(C)C)C(C)C)C(=O)O` the binding stoichiometry was 1 (Peptide cyclase 1 (Gypsophila vaccaria, UniProt R4P353, S562A); isothermal titration calorimetry; concentration not given, pH 8.0, 25 °C).
With `C#CCOCCC(=O)N[C@H](Cc1ccccc1)C(=O)N[C@@H](Cc1ccccc1)C(=O)N[C@@H](CCCNC(N)=O)C(=O)CCl` the selectivity ratio was > 275 fold (Replicase polyprotein 1ab, main protease (rep, Severe acute respiratory syndrome coronavirus 2, UniProt P0DTD1); enzyme activity, inhibitor; reference: PLpro IC50 over target IC50).
For `Cc1ccc(-c2csc(NP(=O)(O)OCC3OC(n4c[n+](Cc5ccccc5)c5c(=O)[nH]c(NC(=O)c6ccccc6)nc54)C4OC(C)(C)OC34)n2)cc1` (centres unmarked), the protein level was 4.23 ng/mL (EIF4E (Homo sapiens, UniProt P06730); refers to: EIF4E; MCF7).
